Experimental data pooled from the literature.
Every numbered part comes from another study and shows a few of its results, in no order.
Sequence of UniProt P07949 (whole entry, unmodified, looked up): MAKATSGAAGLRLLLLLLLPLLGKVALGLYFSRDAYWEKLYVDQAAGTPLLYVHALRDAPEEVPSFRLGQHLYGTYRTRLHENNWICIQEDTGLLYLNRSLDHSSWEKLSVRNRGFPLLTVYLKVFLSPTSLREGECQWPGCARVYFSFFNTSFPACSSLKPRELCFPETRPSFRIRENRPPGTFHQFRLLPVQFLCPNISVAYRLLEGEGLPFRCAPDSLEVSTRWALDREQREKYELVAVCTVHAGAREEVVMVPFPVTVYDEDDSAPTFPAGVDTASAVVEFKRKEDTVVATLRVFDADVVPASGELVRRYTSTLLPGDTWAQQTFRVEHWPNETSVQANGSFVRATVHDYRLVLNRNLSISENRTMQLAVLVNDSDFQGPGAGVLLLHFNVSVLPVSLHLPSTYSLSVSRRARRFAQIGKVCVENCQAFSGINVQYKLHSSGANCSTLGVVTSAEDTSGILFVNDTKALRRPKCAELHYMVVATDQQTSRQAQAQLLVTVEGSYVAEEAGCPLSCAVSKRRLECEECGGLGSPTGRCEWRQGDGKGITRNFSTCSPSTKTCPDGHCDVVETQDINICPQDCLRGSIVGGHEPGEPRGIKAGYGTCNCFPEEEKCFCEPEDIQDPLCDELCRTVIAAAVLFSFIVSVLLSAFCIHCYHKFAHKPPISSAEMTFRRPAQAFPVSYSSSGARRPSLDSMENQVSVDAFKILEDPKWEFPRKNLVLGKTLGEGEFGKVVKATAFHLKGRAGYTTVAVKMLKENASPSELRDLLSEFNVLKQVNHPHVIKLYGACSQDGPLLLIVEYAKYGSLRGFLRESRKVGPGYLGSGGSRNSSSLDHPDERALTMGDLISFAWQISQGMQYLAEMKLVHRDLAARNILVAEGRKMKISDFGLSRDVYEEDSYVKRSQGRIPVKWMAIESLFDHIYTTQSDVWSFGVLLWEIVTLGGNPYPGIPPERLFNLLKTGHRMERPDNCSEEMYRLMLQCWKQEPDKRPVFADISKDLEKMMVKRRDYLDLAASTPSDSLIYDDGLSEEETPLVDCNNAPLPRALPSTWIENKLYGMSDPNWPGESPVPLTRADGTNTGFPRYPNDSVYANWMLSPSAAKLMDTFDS
Sequence of UniProt Q06187 (whole entry, looked up): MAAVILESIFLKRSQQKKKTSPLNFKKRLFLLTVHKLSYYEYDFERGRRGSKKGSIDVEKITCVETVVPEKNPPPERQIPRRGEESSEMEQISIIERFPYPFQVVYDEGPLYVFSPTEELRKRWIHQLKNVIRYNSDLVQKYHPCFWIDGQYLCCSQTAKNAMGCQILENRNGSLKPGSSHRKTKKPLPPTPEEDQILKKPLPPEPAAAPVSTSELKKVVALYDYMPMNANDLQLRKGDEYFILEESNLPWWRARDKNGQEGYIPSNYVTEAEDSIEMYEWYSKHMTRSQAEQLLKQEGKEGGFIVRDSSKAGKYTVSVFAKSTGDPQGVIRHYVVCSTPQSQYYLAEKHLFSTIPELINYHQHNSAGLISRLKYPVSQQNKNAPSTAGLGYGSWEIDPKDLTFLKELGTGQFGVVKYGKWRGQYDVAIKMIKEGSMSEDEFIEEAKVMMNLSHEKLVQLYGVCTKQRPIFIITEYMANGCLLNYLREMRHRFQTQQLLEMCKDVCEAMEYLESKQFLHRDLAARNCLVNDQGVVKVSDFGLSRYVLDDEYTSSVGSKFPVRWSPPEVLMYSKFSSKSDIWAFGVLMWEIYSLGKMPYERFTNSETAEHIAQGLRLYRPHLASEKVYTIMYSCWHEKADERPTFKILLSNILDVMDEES
Sequence of UniProt P36507 (whole entry, looked up): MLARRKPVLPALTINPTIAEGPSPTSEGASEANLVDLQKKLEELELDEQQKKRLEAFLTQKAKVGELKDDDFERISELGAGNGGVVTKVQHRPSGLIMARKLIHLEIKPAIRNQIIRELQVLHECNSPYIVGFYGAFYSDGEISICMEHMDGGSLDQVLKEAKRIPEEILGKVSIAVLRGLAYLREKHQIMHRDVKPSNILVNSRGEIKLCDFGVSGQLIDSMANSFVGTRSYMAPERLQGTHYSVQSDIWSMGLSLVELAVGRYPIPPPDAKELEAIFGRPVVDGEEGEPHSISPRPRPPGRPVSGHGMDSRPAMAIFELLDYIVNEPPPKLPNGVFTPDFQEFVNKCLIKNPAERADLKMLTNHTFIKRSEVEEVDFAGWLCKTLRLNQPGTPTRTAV
Sequence of UniProt Q7KZI7 (whole entry, looked up): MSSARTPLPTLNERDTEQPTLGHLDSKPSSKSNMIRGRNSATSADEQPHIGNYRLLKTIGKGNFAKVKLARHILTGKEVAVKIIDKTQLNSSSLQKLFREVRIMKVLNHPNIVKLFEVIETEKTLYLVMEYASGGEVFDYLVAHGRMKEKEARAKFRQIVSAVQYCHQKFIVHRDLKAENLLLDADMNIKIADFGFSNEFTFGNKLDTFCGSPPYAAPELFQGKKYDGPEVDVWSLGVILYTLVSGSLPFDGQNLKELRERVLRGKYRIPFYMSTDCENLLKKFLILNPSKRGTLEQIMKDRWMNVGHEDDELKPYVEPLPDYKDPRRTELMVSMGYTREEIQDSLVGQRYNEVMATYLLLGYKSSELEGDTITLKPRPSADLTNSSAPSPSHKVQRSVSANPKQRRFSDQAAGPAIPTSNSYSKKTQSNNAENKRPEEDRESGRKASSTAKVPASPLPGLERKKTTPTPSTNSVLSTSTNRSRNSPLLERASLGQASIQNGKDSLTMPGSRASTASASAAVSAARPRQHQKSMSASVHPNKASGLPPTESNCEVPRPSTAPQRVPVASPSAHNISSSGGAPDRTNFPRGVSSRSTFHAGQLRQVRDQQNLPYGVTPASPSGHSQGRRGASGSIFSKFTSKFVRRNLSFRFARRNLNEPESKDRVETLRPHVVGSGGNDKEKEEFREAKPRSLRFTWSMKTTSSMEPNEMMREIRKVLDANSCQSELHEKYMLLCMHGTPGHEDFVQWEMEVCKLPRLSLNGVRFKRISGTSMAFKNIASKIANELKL
Sequence of UniProt O43283 (whole entry, looked up): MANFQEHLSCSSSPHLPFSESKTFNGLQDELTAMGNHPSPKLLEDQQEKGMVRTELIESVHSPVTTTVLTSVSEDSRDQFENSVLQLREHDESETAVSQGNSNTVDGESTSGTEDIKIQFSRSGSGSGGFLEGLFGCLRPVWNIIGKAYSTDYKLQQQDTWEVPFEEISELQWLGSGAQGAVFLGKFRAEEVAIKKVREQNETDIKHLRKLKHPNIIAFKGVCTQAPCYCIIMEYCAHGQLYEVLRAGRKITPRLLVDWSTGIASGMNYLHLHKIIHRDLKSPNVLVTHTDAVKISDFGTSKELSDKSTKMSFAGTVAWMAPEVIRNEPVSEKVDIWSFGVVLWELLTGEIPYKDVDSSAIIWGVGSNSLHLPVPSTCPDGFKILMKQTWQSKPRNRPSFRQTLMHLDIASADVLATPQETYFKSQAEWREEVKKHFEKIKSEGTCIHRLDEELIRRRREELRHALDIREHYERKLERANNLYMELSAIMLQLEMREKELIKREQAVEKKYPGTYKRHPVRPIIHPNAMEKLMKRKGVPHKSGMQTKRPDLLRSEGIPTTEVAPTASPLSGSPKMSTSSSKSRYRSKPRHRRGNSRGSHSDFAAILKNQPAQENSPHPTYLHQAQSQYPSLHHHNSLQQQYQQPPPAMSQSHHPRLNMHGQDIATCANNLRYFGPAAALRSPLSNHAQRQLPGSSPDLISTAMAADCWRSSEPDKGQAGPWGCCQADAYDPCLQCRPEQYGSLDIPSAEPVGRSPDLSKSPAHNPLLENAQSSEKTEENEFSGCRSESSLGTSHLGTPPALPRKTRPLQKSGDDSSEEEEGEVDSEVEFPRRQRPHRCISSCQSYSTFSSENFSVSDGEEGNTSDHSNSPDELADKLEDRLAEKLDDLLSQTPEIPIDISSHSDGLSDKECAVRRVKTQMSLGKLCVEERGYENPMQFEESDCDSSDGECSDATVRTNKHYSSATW
Sequence of UniProt Q16816 (whole entry, looked up): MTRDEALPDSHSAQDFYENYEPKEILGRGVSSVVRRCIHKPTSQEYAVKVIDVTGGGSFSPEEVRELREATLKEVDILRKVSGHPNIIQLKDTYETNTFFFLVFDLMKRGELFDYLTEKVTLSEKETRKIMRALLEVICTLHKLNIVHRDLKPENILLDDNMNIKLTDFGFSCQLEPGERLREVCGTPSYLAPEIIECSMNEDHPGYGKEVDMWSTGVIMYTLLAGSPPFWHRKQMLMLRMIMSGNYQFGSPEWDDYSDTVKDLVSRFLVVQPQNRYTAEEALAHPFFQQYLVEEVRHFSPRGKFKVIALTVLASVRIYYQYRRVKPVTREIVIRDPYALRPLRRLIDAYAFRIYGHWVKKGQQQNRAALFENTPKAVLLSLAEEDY

Series 1
SMILES: O=C(Nc1cnn(-c2csc(C(=O)NC3COC3)c2)c1)Nc1ccccc1Cl
Effect on: enzyme activity
Tested at: 5 µM
Baseline: untreated control
target	remaining activity [%]
ITK (Homo sapiens, UniProt Q08881)	99.3
RET (Homo sapiens, UniProt P07949)	95.5
BRAF (Homo sapiens, UniProt P15056)	86.4
TESK2 (Homo sapiens, UniProt Q96S53)	91.8
SLK (Homo sapiens, UniProt Q9H2G2)	87.9
MAP2K2 (Homo sapiens, UniProt P36507)	91.6
MARK3 (Homo sapiens, UniProt P27448)	97.7
RPS6KB2 (Homo sapiens, UniProt Q9UBS0)	94

Series 2
SMILES: O=C1NC(c2ccccn2)Sc2ccccc21 (stereo not drawn)
Effect on: cell-free assay
Technique: competition with immobilised ligand
Tested at: 1 µM
target	remaining binding [%]
GRK7 (Homo sapiens, UniProt Q8WTQ7)	86
MAPK12 (Homo sapiens, UniProt P53778)	51
PIM3 (Homo sapiens, UniProt Q86V86)	100
NEK1 (Homo sapiens, UniProt Q96PY6)	100
MAPK15 (Homo sapiens, UniProt Q8TD08)	100
LCK (Homo sapiens, UniProt P06239)	80
MAPK9 (Homo sapiens, UniProt P45984)	100
MAP3K13 (Homo sapiens, UniProt O43283)	100
IRAK1 (Homo sapiens, UniProt P51617)	96
STK25 (Homo sapiens, UniProt O00506)	78
MST1R (Homo sapiens, UniProt Q04912)	100
PRKD2 (Homo sapiens, UniProt Q9BZL6)	96
NUAK2 (Homo sapiens, UniProt Q9H093)	100
CDK3 (Homo sapiens, UniProt Q00526)	100
MTOR (Homo sapiens, UniProt P42345)	100
EPHA6 (Homo sapiens, UniProt Q9UF33)	79
EPHB4 (Homo sapiens, UniProt P54760)	100
HUNK (Homo sapiens, UniProt P57058)	80
PAK6 (Homo sapiens, UniProt Q9NQU5)	100
BTK (Homo sapiens, UniProt Q06187)	74
PHKG1 (Homo sapiens, UniProt Q16816)	76
RET (Homo sapiens, UniProt P07949, V804L)	69
CASK (Homo sapiens, UniProt O14936)	71
MARK2 (Homo sapiens, UniProt Q7KZI7)	92
NIM1K (Homo sapiens, UniProt Q8IY84)	100

Series 3
Species: mouse
Medium: microsomes or S9
Tested at: 2 µM
Time: 0.5 h
SMILES	remaining compound
Cc1ccc(C(C)(C)C)c(OCCOCCN2CC(C)OC(C)C2)c1 (stereo not drawn)	0.0229%
O=C(C(F)CC1CCCCC1)N1CCC(N2CCCCC2=O)CC1 (stereo not drawn)	0.581%
CCOC(=O)N1CCN(C(=O)c2cc(-c3ccccc3)nn2C)CC1	19.5%
CC(NNC(=O)c1ccccc1Br)C(=O)Nc1sccc1C#N (stereo not drawn)	8.92%
COc1cc(=O)[nH]cc1C(=O)N1CCN(c2nc(C)cs2)C(C)C1 (stereo not drawn)	91.3%
Cc1cc(C(=O)COC(=O)c2ncc(Cl)c(Cl)c2Cl)c(C)n1-c1nccs1	15.6%
O=C(Nc1ccc2c(c1)COC2=O)c1ccc(Cl)c(Cl)c1	> 99%
Fc1ccc(-c2cc3c(cn2)sc2ccccc23)cc1	17.1%
CCC(=O)N(CCOC)CC(=O)N1N=C(c2cccs2)CC1c1sccc1C (stereo not drawn)	5.84%
CCOc1ccc(C(=O)N2CC(c3nnc(-c4ccncc4)o3)C3(CCOCC3)C2)cc1 (stereo not drawn)	36.7%
CNC(=O)c1cc(S(=O)(=O)NC(C)C)cs1	95%

Series 4
Target: SRSF protein kinase 2 (SRPK2, Homo sapiens, UniProt P78362)
Sequence of UniProt P78362 (whole entry, looked up): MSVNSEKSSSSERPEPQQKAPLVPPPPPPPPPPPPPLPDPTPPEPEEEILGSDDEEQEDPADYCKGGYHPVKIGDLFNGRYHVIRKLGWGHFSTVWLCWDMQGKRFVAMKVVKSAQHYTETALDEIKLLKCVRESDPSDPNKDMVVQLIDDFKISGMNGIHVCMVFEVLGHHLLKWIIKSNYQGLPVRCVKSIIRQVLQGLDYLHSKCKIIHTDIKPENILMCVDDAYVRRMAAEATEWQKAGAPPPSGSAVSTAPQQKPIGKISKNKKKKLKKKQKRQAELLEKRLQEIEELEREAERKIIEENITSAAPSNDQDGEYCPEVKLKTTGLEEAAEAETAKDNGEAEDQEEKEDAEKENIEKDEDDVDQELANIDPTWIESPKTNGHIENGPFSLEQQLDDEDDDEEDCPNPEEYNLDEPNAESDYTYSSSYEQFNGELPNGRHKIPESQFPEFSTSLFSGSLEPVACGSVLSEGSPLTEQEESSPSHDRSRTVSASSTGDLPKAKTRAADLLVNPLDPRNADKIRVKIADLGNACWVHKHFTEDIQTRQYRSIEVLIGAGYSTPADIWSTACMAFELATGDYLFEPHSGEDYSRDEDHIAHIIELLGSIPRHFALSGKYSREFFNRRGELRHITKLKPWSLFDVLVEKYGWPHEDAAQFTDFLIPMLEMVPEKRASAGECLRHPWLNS
Effect on: enzyme activity
Mode: inhibitor
Tested at: 0.5 µM
Baseline: control
SMILES	remaining activity
c1ccc(-c2n[nH]c3c2oc2ccccc23)cc1	95%
Cc1ccc(S(=O)(=O)/C=C/C#N)cc1	108%
O=C1Nc2ccccc2/C1=C\c1c(Cl)[nH]c2ccccc12	94.4%
N#Cc1cnc2cnc(NCc3cccnc3)cc2c1Nc1ccc(F)c(Cl)c1	101%
O=C(c1cc2cc(O)ccc2[nH]1)c1cc2cc(O)ccc2[nH]1	97.1%
COc1ccc2c(c1)c(C1=C(c3c[nH]c4ccccc34)C(=O)NC1=O)cn2CCCN(C)C	88%
c1ccc2c(-c3ccncc3)c[nH]c2c1	103%
COc1ccc(COc2ccc(Cc3cnc(N)nc3N)cc2OC)cc1	87.4%
O=C1Nc2ccc(Br)cc2/C1=C/c1cc2c([nH]1)CCCC2	90.6%
CCCCc1c(-c2ccc(OC)cc2)[nH]c2nccnc12	105%
O=Nc1c(-c2c(O)[nH]c3cc(Br)ccc23)[nH]c2ccccc12	63.9%
O=c1cc(N2CCOCC2)oc2c(-c3ccccc3)cccc12	98.2%
O=C1Cc2c([nH]c3ccc(Br)cc23)-c2ccccc2N1	98.9%
Oc1cccc(-c2nc(N3CCOCC3)c3oc4ncccc4c3n2)c1	97.3%
O=C1NC(=O)c2c1c1c3ccccc3[nH]c1c1[nH]c3cc(Br)ccc3c21	96.2%
CN1CCN(c2ccc3nc(-c4c(N)c5c(F)cccc5[nH]c4=O)[nH]c3c2)CC1	99.9%
CN(C)S(=O)(=O)c1ccc2c(c1)/C(=C/c1cc3c([nH]1)CCCC3)C(=O)N2	50.3%
COc1cccc(-c2cc(=O)c3ccccc3o2)c1N	91.7%
CCCNC(=O)Nc1ccc(Oc2ncnc3cc(OC)c(OC)cc23)cc1Cl	91.1%

Some of these lines once more (series 3):
SMILES	remaining compound
CCOC(=O)N1CCN(C(=O)c2cc(-c3ccccc3)nn2C)CC1	19.5%
CC(NNC(=O)c1ccccc1Br)C(=O)Nc1sccc1C#N (stereo not drawn)	8.92%
COc1cc(=O)[nH]cc1C(=O)N1CCN(c2nc(C)cs2)C(C)C1 (stereo not drawn)	91.3%
Cc1cc(C(=O)COC(=O)c2ncc(Cl)c(Cl)c2Cl)c(C)n1-c1nccs1	15.6%
O=C(Nc1ccc2c(c1)COC2=O)c1ccc(Cl)c(Cl)c1	> 99%
Fc1ccc(-c2cc3c(cn2)sc2ccccc23)cc1	17.1%
